Measured values pooled from the literature.
Protocols differ between the studies behind these lines. ± marks the error that the study gave.
Luciferin 4-monooxygenase: Luciferin 4-monooxygenase (Photinus pyralis, UniProt P08659)
Sequence of UniProt P08659 (whole entry, looked up): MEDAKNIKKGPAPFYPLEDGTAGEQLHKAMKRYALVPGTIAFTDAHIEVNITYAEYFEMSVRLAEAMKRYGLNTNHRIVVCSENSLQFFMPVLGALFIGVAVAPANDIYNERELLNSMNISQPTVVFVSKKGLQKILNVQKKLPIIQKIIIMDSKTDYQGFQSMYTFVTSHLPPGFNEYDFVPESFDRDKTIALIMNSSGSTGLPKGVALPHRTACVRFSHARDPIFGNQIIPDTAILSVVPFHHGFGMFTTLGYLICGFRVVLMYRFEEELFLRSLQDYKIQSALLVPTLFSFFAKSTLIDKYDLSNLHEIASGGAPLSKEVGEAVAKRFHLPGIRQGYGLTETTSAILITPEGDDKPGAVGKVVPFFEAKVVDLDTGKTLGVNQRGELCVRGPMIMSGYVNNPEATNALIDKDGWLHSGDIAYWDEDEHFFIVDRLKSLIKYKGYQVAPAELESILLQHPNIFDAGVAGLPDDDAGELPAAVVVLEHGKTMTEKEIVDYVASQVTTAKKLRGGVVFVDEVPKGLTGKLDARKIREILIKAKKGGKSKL
DRD1: D(1A) dopamine receptor (DRD1, Homo sapiens, UniProt P21728)
Sequence of UniProt P21728 (whole entry, looked up): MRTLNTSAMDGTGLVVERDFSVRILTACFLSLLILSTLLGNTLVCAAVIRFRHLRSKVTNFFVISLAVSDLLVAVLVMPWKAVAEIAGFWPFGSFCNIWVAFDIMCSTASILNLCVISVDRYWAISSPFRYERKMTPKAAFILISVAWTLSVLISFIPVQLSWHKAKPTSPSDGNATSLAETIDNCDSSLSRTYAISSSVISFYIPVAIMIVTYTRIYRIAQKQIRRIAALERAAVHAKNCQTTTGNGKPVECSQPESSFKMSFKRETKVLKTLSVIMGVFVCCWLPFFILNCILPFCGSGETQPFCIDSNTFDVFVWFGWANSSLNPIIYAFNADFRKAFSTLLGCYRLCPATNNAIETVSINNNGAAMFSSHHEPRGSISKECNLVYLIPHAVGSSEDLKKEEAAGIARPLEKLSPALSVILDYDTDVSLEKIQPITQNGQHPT
Sequence of UniProt P32247 (whole entry, looked up): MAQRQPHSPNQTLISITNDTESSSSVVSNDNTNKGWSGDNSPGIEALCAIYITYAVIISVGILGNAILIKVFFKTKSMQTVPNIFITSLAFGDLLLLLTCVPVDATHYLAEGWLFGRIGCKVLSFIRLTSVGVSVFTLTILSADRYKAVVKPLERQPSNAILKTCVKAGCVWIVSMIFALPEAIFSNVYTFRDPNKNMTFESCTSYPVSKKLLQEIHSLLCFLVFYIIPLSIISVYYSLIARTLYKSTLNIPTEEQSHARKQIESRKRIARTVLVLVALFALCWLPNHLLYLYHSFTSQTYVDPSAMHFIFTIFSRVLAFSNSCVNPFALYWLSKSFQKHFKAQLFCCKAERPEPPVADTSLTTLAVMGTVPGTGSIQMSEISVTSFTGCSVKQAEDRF
Sequence of UniProt P50897 (whole entry, looked up): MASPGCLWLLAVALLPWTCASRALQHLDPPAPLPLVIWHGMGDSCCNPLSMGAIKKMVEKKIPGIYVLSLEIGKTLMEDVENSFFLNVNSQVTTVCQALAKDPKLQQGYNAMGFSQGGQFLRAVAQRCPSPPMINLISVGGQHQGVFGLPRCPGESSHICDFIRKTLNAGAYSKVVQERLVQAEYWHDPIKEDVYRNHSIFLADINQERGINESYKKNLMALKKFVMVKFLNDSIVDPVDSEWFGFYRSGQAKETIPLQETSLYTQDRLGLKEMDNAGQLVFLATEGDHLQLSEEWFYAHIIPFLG
Sequence of UniProt O60674 (whole entry, unmodified, looked up): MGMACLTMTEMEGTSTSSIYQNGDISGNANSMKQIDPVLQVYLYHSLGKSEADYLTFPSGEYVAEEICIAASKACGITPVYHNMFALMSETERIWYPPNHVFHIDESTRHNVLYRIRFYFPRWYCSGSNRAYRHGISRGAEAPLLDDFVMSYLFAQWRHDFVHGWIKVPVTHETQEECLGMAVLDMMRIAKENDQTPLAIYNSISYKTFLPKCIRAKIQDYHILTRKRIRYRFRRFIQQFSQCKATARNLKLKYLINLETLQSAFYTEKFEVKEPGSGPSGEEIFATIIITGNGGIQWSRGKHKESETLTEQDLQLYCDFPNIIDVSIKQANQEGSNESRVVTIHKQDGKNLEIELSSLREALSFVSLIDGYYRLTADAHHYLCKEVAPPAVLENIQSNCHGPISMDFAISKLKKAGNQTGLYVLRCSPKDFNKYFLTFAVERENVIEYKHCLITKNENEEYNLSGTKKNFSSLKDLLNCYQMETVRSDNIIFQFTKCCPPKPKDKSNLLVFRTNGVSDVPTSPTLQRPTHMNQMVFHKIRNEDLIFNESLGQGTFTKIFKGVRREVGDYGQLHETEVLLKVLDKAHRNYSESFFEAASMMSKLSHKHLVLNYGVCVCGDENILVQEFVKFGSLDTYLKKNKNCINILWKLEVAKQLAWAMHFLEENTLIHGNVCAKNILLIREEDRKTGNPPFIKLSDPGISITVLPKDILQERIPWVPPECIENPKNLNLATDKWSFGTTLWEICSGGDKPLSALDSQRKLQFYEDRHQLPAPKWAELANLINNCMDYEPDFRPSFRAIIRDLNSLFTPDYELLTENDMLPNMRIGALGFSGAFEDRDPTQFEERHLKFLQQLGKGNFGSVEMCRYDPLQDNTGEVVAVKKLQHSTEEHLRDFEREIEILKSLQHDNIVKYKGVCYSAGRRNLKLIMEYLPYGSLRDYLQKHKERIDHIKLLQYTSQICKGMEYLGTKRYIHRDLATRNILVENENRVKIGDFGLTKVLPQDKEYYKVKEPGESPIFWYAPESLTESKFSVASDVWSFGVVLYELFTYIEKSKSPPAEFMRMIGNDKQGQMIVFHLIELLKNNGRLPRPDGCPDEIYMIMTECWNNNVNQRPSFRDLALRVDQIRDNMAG
Sequence of UniProt Q14145 (whole entry, looked up): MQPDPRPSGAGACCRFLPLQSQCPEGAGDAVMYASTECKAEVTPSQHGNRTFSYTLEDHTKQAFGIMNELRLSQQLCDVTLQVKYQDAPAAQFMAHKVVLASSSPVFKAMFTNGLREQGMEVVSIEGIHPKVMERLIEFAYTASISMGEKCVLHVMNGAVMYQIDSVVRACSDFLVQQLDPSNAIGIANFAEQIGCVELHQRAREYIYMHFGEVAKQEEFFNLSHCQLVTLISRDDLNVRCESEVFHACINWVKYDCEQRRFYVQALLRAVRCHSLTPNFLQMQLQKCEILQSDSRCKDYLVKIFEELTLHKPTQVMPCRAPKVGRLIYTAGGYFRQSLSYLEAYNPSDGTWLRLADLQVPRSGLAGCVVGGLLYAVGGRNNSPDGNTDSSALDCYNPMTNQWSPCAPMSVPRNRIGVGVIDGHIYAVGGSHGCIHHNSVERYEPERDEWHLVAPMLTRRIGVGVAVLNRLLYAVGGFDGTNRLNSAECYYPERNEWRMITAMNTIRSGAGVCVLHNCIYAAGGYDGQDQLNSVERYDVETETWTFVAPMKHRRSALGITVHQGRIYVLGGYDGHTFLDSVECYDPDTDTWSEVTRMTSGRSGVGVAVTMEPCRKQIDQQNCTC
Sequence of UniProt P41143 (whole entry, looked up): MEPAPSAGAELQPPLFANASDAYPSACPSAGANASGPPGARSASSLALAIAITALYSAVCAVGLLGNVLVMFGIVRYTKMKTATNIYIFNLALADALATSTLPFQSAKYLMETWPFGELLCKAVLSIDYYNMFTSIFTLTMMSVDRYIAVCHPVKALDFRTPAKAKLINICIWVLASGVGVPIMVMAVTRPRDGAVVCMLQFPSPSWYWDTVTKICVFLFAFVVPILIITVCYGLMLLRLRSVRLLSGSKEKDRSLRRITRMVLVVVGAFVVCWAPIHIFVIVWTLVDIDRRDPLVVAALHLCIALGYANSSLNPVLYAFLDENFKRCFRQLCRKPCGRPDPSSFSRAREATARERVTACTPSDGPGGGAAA
Sequence of UniProt Q8NB16 (whole entry, looked up): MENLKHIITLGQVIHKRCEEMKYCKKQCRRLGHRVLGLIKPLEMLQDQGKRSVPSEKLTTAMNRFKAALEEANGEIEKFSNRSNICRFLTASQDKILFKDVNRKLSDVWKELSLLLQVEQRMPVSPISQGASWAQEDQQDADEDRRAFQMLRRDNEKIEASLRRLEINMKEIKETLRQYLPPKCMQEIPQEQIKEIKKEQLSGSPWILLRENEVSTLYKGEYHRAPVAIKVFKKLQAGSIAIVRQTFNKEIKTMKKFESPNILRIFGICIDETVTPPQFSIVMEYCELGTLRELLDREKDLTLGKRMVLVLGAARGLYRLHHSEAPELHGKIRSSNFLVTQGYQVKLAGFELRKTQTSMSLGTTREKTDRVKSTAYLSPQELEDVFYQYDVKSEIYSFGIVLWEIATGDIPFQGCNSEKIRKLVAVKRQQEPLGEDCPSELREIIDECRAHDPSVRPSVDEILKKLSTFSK
Sequence of UniProt Q9C0K7 (whole entry, looked up): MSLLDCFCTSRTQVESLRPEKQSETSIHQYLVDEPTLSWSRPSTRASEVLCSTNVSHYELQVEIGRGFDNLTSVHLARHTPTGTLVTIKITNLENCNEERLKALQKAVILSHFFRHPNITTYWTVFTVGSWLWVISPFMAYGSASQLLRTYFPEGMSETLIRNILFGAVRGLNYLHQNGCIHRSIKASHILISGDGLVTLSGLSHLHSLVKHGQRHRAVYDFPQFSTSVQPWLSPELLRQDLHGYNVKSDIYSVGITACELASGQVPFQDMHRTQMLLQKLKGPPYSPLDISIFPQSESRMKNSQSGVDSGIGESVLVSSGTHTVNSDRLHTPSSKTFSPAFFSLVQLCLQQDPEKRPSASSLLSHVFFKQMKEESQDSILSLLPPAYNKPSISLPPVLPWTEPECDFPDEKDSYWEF

COc1cccc(N2CCN(C3=Nc4c(F)cccc4[C@H](CC(=O)O)N3c3cc(C(F)(F)F)ccc3OC)CC2)c1 — inhibition (THP-1; pyroptotic LDH release; 2 µM, 40 min, added: LPS then nigericin): 9.24%
CC(=O)[C@]1(O)Cc2c(O)c3c(c(O)c2[C@@H](O[C@H]2C[C@H](N)[C@H](O)[C@H](C)O2)C1)C(=O)c1ccccc1C3=O — inhibition (Luciferin 4-monooxygenase; luciferase luminescence, inhibitor; cell-free; 50 µM, counter-screen): 60%
COc1ccc(S(=O)(=O)N(CC(=O)O)Cc2ccc(CN(CC(=O)O)S(=O)(=O)c3ccc(OC)cc3)c3ccccc23)cc1 — inhibition (Kelch-like ECH-associated protein 1, Kelch domain (KEAP1, Homo sapiens, UniProt Q14145); binding, fluorescence polarization competition; 50 µM): no inhibition
O=C(CN1CCO[C@H](COc2cccnc2)C1)N1CCc2ccccc21 — inhibition (DRD1; radioligand binding; concentration not given, added: [3H]SCH23390): 2.5%
Cn1cccc1C(=O)N1CCCC1c1ccc(C(=O)N2CCC(C)(C)C2)s1 (stereo not shown) — inhibition (Luciferin 4-monooxygenase; luciferase luminescence, inhibitor; cell-free; 50 µM, counter-screen): 65.1%
Nc1cc(-c2ccncc2)c[nH]c1=O — inhibition (Palmitoyl-protein thioesterase 1 (Homo sapiens, UniProt P50897); Spectrum Collection screen; concentration not given, added: substrate 20 µM): 68.5%
CCN(Cc1ccccc1C(F)(F)F)C(=O)C1CCN(S(=O)(=O)c2ccc3[nH]ncc3c2)CC1 — inhibition (rat NMDA receptor; radioligand binding; 10 µM, agonist site): 1%
O=c1c(O[C@@H]2O[C@H](CO)[C@H](O)[C@H](O)[C@H]2O)c(-c2cc(O)c(O)c(O)c2)oc2cc(O)cc(O)c12 — inhibition (Adhesin FmlH, lectin domain (Escherichia coli, UniProt Q1RBS0); binding to desialylated mucin, ELISA competition; UPEC UTI89; 100 µM): 10.7 ± 7.2%
Cc1ccc(N(O)N=Nc2ccc(S(=O)(=O)Nc3cc(C)on3)cc2)cc1 — inhibition (α-glucosidase, rat intestine; enzyme activity; 60 µg/mL, added: 4-nitrophenyl α-D-glucopyranoside): 22.5 ± 1.54%
COc1ccc2c(c1)CN(CCCN1CCN(c3ccccc3OC)CC1)C2=O — inhibition (DRD1; radioligand binding; concentration not given, added: [3H]SCH23390): 54.5%
COc1ccc(F)cc1C(=O)NCc1ccc(-c2nn([C@@H](C)C(F)(F)F)c(N)c2C(N)=O)cc1 — inhibition (STE20-related kinase adapter protein beta (Homo sapiens, UniProt Q9C0K7); target engagement, competitive chemoproteomics; human PBMCs; 10 µM): 26.6%
O=C(O)Cc1ccc(Cl)cc1 — inhibition (THP-1; pyroptotic LDH release; 2 µM, 40 min, added: LPS then nigericin): 10.4%
CN(C(=O)n1cnc(-c2ccc[n+]([O-])c2)c1)C1CCCCC1 — inhibition (OPRD1 (Homo sapiens, UniProt P41143); binding; 10 µM): 8.82%
CCN(O)N=Nc1ccc(S(=O)(=O)Nc2nccs2)cc1 — inhibition (α-glucosidase, rat intestine; enzyme activity; 120 µg/mL, added: 4-nitrophenyl α-D-glucopyranoside): 32.5 ± 0.04%
CC[C@@H]1[C@H](F)C(=O)N[C@@H]1COc1nccc2cc(C(N)=O)c(OC)cc12 — inhibition (MLKL (Homo sapiens, UniProt Q8NB16); ATP-site probe binding, ActivX profiling; THP-1 cell lysate; 0.04 mM, Lys1 site): 7.2%
CN1CCN(c2cc(-c3ccncc3)c(-c3ccc4ccccc4c3)nn2)CC1 — inhibition (BRS3 (Homo sapiens, UniProt P32247); antagonist, FLIPR; 10 µM): -9.1%
CN(O)N=Nc1ccc(S(=O)(=O)Nc2nccs2)cc1 — inhibition (α-glucosidase, rat intestine; enzyme activity; 20 µg/mL, added: 4-nitrophenyl α-D-glucopyranoside): 10 ± 0.041%
CCN1CCN(Cc2ccc(NC(=O)c3ccc(C)c(-c4ccc5nc(NC(=O)C6CC6)cn5n4)c3)cc2C(F)(F)F)CC1 — inhibition (JAK2 (Homo sapiens, UniProt O60674, V617F); kinase activity, inhibitor, KiNativ profiling; SET-2; 5 µM): 85.5%
Cc1ccc(N(O)N=Nc2ccc(S(=O)(=O)Nc3onc(C)c3C)cc2)cc1 — inhibition (α-glucosidase, rat intestine; enzyme activity; 60 µg/mL, added: 4-nitrophenyl α-D-glucopyranoside): 10 ± 0.54%
C[C@@H](O)[C@H](NC(=O)[C@H](CS)NC(=O)[C@@H](N)CO)C(=O)O — inhibition (GAPDH (Homo sapiens, UniProt P04406); protein aggregation, turbidity; 30 µM): 0%
O=C1c2ccccc2CCN1CCCCN1CCN(c2ccccn2)CC1 — inhibition (DRD1; radioligand binding; concentration not given, added: [3H]SCH23390): 53.9%
O=S(=O)(Nc1nccs1)c1ccc(N=NN(O)c2ccccc2)cc1 — inhibition (α-glucosidase, rat intestine; enzyme activity; 300 µg/mL, added: 4-nitrophenyl α-D-glucopyranoside): 52.5%

For quick reference, copied from above:
CN(O)N=Nc1ccc(S(=O)(=O)Nc2nccs2)cc1 — inhibition (α-glucosidase, rat intestine; enzyme activity; 20 µg/mL, added: 4-nitrophenyl α-D-glucopyranoside): 10 ± 0.041%
O=c1c(O[C@@H]2O[C@H](CO)[C@H](O)[C@H](O)[C@H]2O)c(-c2cc(O)c(O)c(O)c2)oc2cc(O)cc(O)c12 — inhibition (Adhesin FmlH, lectin domain (Escherichia coli, UniProt Q1RBS0); binding to desialylated mucin, ELISA competition; UPEC UTI89; 100 µM): 10.7 ± 7.2%
O=C(CN1CCO[C@H](COc2cccnc2)C1)N1CCc2ccccc21 — inhibition (DRD1; radioligand binding; concentration not given, added: [3H]SCH23390): 2.5%
